# Experimental data pooled from the literature.
# Each numbered part is a random draw from the data of one study; scales do not carry over between parts. Substitutions count along the parent as printed.

# Block 1
# Target: RING finger protein unkempt homolog, zinc fingers 1-6, GST-SBP tag (UNK, Homo sapiens, UniProt Q9C0B0, residues 30-357)
# Sequence of UniProt Q9C0B0 (30-357, looked up): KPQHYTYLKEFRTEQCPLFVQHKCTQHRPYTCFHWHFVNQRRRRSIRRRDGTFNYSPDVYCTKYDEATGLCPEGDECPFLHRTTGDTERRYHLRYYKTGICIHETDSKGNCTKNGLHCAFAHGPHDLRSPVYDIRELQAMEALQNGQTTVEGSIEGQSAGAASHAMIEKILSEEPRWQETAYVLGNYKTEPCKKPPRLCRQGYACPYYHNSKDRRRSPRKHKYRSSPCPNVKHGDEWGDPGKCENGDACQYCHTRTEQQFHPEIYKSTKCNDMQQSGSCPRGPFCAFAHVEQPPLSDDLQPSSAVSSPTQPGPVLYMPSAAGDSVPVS
# Method: RNA Bind-n-Seq
# Form: RNA
# Sample: in vitro
# Concentration: not given
# Notes: RNA with constant flanks, human-mouse chimeric sites, ends assumed
# Reference: input RNA pool
# Reading: higher = stronger binding
Oligonucleotide,bound/input enrichment [ratio]
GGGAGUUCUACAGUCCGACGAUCGAGCCCAGCCGGCAGUUUGUAAAGGACUCCAUUCGGCUGGUUAAAAGAUGCACUAAACCCGACAGAAAAGAAUUCCAGAAGAUUGCCAUGGCUACAGCUAUAGGAUUUGCUAUCAUGGGACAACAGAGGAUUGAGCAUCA,0.19
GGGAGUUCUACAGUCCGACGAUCAGAUUCCCCCUCCUGAGACCUCCUCCGAAGUUGGAGUCUCUUACAGAUGCCUCAUCCCCUGUUAGCGUUUUGGUCUGGACCACCCAGCCUUGGACAAUUCCCGCCAACCAGGCAAUUUGCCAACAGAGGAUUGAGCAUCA,0.264
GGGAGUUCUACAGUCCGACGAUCUCGGAUGCUGUGCUGGGUCACUUUCCGUAUCCAGAUCCUUCACAGUGGACAGAUGAAGAAUUAGGUAUCCCUCCUGAUGACGAGGACUGACACUGUAAACUCUCUGGACGAGUAGGAGCACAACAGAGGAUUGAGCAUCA,0.647
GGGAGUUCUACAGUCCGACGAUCGUGUCCUGCUUUCAACUUAAAUCACUGAGGCAUCUCUACUGUUCUGUGAGCAUCAGGAUUUUAGUGCUGUGUCACCACAUGAGAGUUCAGAAGCAGCCUUUCUGUGGAGAGUGAGAAUGACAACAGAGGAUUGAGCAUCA,0.178
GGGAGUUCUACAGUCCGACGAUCUAUAAUAAUCAUGAAAUUCGUUCUGGAAAGCACAUUGGUGUCUGCAUCUCAGUUGCCAACAAUAGGCUUUUUGUGGGCUCGAUUCCUAAGAGUAAAACCAAGGAGCAGAUUCUUGAAGAACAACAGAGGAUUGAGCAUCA,0.983
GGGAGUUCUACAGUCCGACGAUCAGAGCCCAGGACGUUGAUGCUACAAACCCAAAUUACGAAAUUAUGUGUAUGAUCAGAGACUUCAGAGGGAGCUUGGAUUACAGACCCCUAACAACAGCAGAUCCUAUUGAUGAACAUAGGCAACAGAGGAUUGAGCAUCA,0.383
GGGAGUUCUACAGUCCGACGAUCAUAGAUGAAAUUGAUGUGGACCAGGAAGGAAUUGCUGAAAUGAUGCUGGAUGAAAAUGCUAUUGCUCAGGUCCCACGCCCUGGAACGUCUUUGAAGCUCCCUGGCACUAACCAAACAGGACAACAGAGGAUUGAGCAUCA,0.23
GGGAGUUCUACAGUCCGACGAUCCUGGCACUCUAUCAGAUAUAUUAAUUUUUUAAUGUAGAUAAAAUUUCAAAAAUGAAUGGCUACUUUACGUGAUAGAUUAGGGUUUUACUAUAUAUGUGUACAUAUGUAUAUAUAUAUAUACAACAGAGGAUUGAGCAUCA,3.12

# Block 2
# Target: Histone acetyltransferase KAT6A, both winged helices, GST fusion (KAT6A, Homo sapiens, UniProt Q92794, residues 1-181)
# Method: protein binding microarray
# Form: double-stranded DNA, one strand shown
# Sample: in vitro
# Concentration: not given
# Notes: 8-mer, flanks averaged, mean of 2 arrays, mostly near background
# Reference: not given
# Reading: higher = stronger binding
# Residues (chain): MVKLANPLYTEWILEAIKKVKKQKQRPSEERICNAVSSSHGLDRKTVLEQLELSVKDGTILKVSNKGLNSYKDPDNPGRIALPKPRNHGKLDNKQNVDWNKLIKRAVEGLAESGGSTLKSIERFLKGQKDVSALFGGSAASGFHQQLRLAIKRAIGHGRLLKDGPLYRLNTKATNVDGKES
Oligonucleotide,E-score
CGGAATGC,0.197
AAGGAGAT,0.00084
CTAGGCCA,-0.0409
GTGAAATA,-0.127
CTTAGCAA,-0.12
TACACGGA,0.19
ATCCTCTG,-0.24
CACGGGAG,0.119
AGCAGGTG,0.00439
CACATACA,-0.0961
ATGCTCGA,-0.0565
CATACCAG,-0.224
ATACACCC,0.0336
GAATGACA,-0.0877
CGACTGAG,-0.143
CTATACTC,-0.0222
CAACGAGC,-0.0378
CGTCGGTC,0.225
GGTCTAGA,-0.1
AGTCCGGC,0.174
GATGTTAA,-0.127
CCAGCTGG,-0.174
ATAGCACG,0.107
GCCTTAGC,0.0484
AGAGAGGG,-0.109

# Block 3
# Target: ABI1, truncated, D143A, DHFR fusion (Arabidopsis thaliana)
# Method: DHFR PCA, deep sequencing
# Sample: yeast
# Notes: methotrexate growth selection, single substitutions
# With: (+)-ABA 0.11 µM
# Reference: wild-type fitted maximum
# Reading: higher = stronger binding
# Starting sequence: PYL1, truncated, DHFR fusion (Arabidopsis thaliana); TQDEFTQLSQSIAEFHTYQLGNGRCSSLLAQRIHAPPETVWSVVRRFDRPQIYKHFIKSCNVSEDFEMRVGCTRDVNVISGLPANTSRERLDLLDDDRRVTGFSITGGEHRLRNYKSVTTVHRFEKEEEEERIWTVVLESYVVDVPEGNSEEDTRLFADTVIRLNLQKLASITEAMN
Change,relative binding score
H16T,3.11%
R49T,21.2%
N165Y,10.9%
L112A,-5.02%
V118D,-3.89%
I57P,0.475%
V76I,54.7%
E125M,32.3%
R74N,21.1%
D48N,-0.869%
C60T,6.42%
G107W,-0.621%
R45K,-1.09%
F157H,11.1%
E128C,36.5%
P36N,14.8%
E131Q,49%
L112G,-5.95%
G107F,0.319%
G107Y,4.83%
F56H,-1.58%
V118G,1.02%

# Block 4
# Target: RNA binding protein fox-1 homolog 2, RRM domain, GST-SBP tag (RBFOX2, Homo sapiens, UniProt O43251-10, residues 100-194)
# Method: RNA Bind-n-Seq
# Form: RNA
# Sample: in vitro
# Concentration: 365 nM
# Notes: natural RNA segment, single round, ends assumed
# Reference: no-protein control
# Reading: higher = stronger binding
# Residues (chain): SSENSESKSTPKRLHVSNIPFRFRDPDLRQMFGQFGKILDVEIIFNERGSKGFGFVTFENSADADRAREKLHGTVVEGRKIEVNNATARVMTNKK
Oligonucleotide,RBNS enrichment (R)
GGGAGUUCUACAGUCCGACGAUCGGAGCUGGGAUUCGGUUCCUUAACUUGAGUCCCAGGGGCAGCUUGGAUGAGAAACAGGCAUCUCCCAGGCUCCAAGCCUAUUUGGAGGUGACACGGUUGAGUGCUUCUGGUGGAAUUCUCGGGUGCCAA,0.397
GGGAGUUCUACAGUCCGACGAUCAAACUGCUUCUGUAGUACCAUUUUGAUAUUAUGUCAGUUAUACAUAAUAUCUGACUAUUGUUUUCUAUUAAAUAUCAGAACCUUACUGGGUCUUUACACCUCUGUGAAGUUGGAAUUCUCGGGUGCCAA,1.29
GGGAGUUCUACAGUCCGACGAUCUGAAGCUAGAGUGAACUCAUGUGCCAGCAGAGGCCUCCUCUCUUUAUAGCAAUUCUGACAAUAGGUUUGUUUGUUUGUUUGUUUGUUUUUACAAACUCAAGAAAAACAGAUGGAAUUCUCGGGUGCCAA,0.312
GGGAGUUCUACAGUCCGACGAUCUGGGCACCUCCUCCAUGGCUCUCAGGGGCCUUUCAUUUCUGUGGGAGGGGCAGAGAGGUAGGUGGCACAGAAGAUGGGGCUUUAUGCUUGUAAAUAUUGAUAGCACUGGCUGGAAUUCUCGGGUGCCAA,0.612
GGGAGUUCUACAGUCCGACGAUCAAAAUUAUUAGGGUUUUUACAUAACUCUGGAAUCUGUUGCUUUUAUAAACAAAUUGUUCAAUUUUAGGAAUUCCCCGUUACCUCCACAGUCAGUUGUGAGGGCCUGAUUAUGGAAUUCUCGGGUGCCAA,0.808
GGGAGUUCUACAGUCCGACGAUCUAGUGGCUAGCAUUUAUAGACCUGUUGUGUUUGUUUUGUUUCUUACUGACUGAUAGUAAAACUCAUGGAAGAACUCAAGAGAUGUCGAGACCAAAAGUCCCCAGUGACACUGGAAUUCUCGGGUGCCAA,0.401
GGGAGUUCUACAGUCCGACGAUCAAGAUCCUAAAUGGCAGCCUUUCAGAUAGGCAUGUCUGACACCUGCUGAGGCCUCUACCAGUUCACUCUCUCCCUUGGAAGUGGAAUUCUACCCACCUAAACCCCCCAAAUGGAAUUCUCGGGUGCCAA,0.607
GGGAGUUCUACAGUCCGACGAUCUACCGUGACACCACGCAUGGCCAGAGCUAGCGUCCCUACUGCCUCCCGACUCCUCAGUGGAGGAGGAGCUGCGGUCCCUCUGGUGUCUGCCAUCCCCCUCCCUCCCUGGGUGGAAUUCUCGGGUGCCAA,0.291

# A few entries again (block 2):
Oligonucleotide,E-score
CTTAGCAA,-0.12
TACACGGA,0.19
ATCCTCTG,-0.24
CACGGGAG,0.119
AGCAGGTG,0.00439
